Results gathered from unrelated publications.
Lines come from different studies, so protocols differ. Values joined by “and” are separate records of one study, mostly repeats; a detail may differ. ± marks the error that the study gave.

For `Cn1cncc1C1=CN(c2ncnc3[nH]cnc23)CCS1`, the CC50 was 138 µM (LOX IMVI; melanoma cell line).
For `CN1CCN(C2(CNC3CCN(c4cccc(-c5cc6cc(F)ccc6[nH]5)c4)CC3)CCC2)CC1`, the GI50 was 1.65 µM (NCI-H23).
Under “G2 phase cells”, `Oc1ccc(C2(c3ccc(O)cc3)c3ccccc3-c3ccccc32)cc1` is recorded as 20.9 ± 3.17% (HepG2 spheroids; Hoechst flow cytometry; 1 µM, 24 h).
For `COc1cc(CCC[P+](c2ccccc2)(c2ccccc2)c2ccccc2)c(OC)c2c1OCO2.[I-]`, the Log10GI50 was -5.61 log M (LOX IMVI; SRB).
With `N#Cc1c(Cl)c(Cl)c(Cl)c(C#N)c1Cl` the activity score was 3.8 (human iPSC-derived cardiomyocytes; MyBP-C/MYH ratio, plate-normalised SD score; concentration not given, primary screen; direction not given).
`Cc1nn(-c2nc3c(F)cc(F)cc3s2)c(O)c1C(c1ccc(C(F)(F)F)cc1)c1c(C)nn(-c2nc3c(F)cc(F)cc3s2)c1O` gave a viability of 15.4% and 7.29% and 14.9% and 6.59% (RAW-ISG; CCK-8; 100 µM).
The IC50 of `CN1CCN(S(=O)(=O)c2cc([N+](=O)[O-])ccc2N(CCOS(C)(=O)=O)CCOS(C)(=O)=O)CC1` is reported as 0.0127 µM (sample E T-ALL PDX cells; cell viability; ex vivo; 48 h).
For `CC(C)[C@@H](CS(=O)(=O)C(C)C)N1C(=O)[C@@](C)(CC(=O)O)C[C@H](c2cccc(Cl)c2)[C@H]1c1ccc(Cl)cc1`, cell death read “increased” (cultures, short-term, GBM PDX, MDM2-amplified; YOYO-3 live-cell imaging; 30 nM, 72 h).
`O=C(N/N=C/c1ccc(Sc2ccccn2)s1)c1cccc(F)c1` has a GI50 of 1.9 µM (D458 medulloblastoma).
`c1ccc([C@@H]2C[C@H]2NC2CCNCC2)cc1` has a viability of 135% (HBL-1; 0.5 µM, 120 h).
`CC(C)C[C@H](NC(=O)[C@H](CCc1ccccc1)NC(=O)CN1CCOCC1)C(=O)N[C@@H](Cc1ccccc1)C(=O)N[C@@H](CC(C)C)C(=O)[C@@]1(C)CO1` has a fold change of -3850 (patient tumour conditionally reprogrammed cells; RNA-seq, item: IL36B mRNA; human; concentration not given; reference: DMSO).
Under “cells in S phase”, `Cn1cc2cc(C(F)(F)c3nnc4ccc(-c5cnn(C6CC6)c5)nn34)c(F)cc2n1` is recorded as 48.6% and 40.2% and 40.6% (MKN-45; PI flow cytometry; 2 nM, 24 h).
The GI50 of `CC(C)N1CCC(NC2CCN(c3cccc(-c4cc5cc(F)ccc5[nH]4)c3)CC2)CC1` is reported as 1.79 µM (HCC 2998).
The EC50 of `CC(C)C[C@H](NC(=O)[C@H](CC(C)C)NC(=O)[C@H](CCCNC(=N)N)NC(=O)[C@H](Cc1c[nH]cn1)NC(=O)[C@H](CC(C)C)NC(=O)[C@H](CCCNC(=N)N)NC(=O)[C@H](CCCNC(=N)N)NC(=O)[C@H](Cc1c[nH]c2ccccc12)NC(=O)[C@H](CC(C)C)NC(=O)[C@H](CCCNC(=N)N)NC(=O)[C@H](Cc1c[nH]c2ccccc12)NC(=O)[C@H](CC(C)C)NC(=O)[C@H](CC(C)C)NC(=O)[C@H](Cc1c[nH]cn1)NC(=O)[C@H](Cc1c[nH]c2ccccc12)NC(=O)[C@H](CC(C)C)NC(=O)[C@@H](N)CCCNC(=N)N)C(=O)N[C@@H](CCCNC(=N)N)C(=O)N[C@@H](CS)C(N)=O` is reported as 6 µM (human red blood cells; pH 5.5; reference: Triton X-100).
For `Nc1ncnc2c1ncn2[C@@H]1O[C@@H]2COP(=O)(O)O[C@H]3[C@@H](O)[C@H](n4cnc5c(=O)[nH]cnc54)O[C@@H]3COP(=O)(O)O[C@H]2[C@H]1O`, “pathway fold enrichment” read 2.22 (HFF-1; RNA sequencing, item: Hemostasis; upregulated pathway; reference: Zika virus alone).
With `COc1c(CCC[P+](c2ccccc2)(c2ccccc2)c2ccccc2)cc2c(c1OC)OCO2.[I-]` the Log10GI50 was -5.62 log M (LOX IMVI; SRB).

Excerpt of the above:
The IC50 of `CN1CCN(S(=O)(=O)c2cc([N+](=O)[O-])ccc2N(CCOS(C)(=O)=O)CCOS(C)(=O)=O)CC1` is reported as 0.0127 µM (sample E T-ALL PDX cells; cell viability; ex vivo; 48 h).
